Assay results from different studies.
Each numbered part is a random draw from the data of one study; scales do not carry over between parts. Several values in a cell are separate wells, animals, samples, runs or records.
UniProt P08069, sequence (whole entry, looked up): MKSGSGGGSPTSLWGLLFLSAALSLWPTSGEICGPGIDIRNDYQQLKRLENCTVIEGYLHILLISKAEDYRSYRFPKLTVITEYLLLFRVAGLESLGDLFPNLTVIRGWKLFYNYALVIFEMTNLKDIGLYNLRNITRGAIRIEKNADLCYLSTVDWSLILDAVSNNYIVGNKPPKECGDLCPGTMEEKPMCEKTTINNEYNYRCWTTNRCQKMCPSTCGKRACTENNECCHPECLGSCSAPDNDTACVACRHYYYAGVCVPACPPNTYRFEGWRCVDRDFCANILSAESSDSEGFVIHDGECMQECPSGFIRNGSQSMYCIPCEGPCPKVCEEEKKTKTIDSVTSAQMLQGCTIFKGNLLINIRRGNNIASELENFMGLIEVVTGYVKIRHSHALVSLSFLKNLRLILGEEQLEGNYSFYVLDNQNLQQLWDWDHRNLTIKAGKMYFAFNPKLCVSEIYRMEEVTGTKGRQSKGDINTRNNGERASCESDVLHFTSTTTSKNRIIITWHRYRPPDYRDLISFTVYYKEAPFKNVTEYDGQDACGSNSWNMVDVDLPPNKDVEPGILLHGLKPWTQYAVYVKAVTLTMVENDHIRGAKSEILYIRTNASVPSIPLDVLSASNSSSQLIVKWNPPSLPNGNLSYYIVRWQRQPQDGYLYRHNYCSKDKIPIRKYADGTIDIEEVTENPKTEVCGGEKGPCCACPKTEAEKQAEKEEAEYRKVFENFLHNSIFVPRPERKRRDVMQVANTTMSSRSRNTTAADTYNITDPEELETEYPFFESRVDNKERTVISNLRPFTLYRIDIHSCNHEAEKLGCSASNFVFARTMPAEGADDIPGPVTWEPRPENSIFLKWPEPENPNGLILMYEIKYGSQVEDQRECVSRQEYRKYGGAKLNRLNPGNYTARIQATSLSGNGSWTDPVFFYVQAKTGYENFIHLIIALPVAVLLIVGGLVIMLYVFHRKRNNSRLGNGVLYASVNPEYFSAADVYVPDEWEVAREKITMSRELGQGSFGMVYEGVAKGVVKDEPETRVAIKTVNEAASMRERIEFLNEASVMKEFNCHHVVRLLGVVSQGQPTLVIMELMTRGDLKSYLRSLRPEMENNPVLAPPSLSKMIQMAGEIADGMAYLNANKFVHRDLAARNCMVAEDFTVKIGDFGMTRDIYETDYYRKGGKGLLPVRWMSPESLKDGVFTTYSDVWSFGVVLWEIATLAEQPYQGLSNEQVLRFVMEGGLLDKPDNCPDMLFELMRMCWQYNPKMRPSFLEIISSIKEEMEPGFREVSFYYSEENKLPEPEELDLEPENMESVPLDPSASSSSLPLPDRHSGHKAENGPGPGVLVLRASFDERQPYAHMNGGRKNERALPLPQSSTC
UniProt P23458, sequence (whole entry, looked up): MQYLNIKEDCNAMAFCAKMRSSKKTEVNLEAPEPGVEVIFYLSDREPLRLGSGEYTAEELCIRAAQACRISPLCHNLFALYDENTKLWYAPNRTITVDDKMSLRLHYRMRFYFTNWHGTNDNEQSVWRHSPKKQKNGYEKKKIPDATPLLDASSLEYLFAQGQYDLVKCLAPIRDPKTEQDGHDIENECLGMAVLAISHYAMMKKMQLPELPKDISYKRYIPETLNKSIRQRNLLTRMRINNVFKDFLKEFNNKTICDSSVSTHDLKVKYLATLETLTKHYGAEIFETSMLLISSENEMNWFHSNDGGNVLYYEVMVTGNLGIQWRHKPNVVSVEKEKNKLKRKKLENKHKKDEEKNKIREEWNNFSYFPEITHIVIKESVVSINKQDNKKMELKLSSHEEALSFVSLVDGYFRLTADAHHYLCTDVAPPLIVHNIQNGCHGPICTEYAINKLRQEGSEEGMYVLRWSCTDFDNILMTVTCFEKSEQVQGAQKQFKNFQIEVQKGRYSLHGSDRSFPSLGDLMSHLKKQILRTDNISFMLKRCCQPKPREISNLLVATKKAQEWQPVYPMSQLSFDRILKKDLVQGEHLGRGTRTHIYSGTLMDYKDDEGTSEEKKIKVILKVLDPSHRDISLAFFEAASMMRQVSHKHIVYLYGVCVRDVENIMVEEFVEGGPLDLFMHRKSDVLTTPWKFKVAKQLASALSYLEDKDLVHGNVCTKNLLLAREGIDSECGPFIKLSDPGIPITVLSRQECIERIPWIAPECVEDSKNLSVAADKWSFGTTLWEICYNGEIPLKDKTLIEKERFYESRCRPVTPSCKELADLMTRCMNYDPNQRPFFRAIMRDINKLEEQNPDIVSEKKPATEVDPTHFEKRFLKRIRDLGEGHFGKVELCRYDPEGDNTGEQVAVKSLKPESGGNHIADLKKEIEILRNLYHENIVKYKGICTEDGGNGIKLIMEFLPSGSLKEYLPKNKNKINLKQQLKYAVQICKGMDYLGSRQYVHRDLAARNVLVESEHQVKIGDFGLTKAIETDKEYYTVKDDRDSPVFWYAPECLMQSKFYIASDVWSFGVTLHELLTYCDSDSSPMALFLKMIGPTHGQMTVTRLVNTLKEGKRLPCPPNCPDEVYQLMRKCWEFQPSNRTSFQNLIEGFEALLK

Set 1
Structure (SMILES): Cc1nc(Nc2ncc(C(=O)Nc3c(C)cccc3Cl)s2)cc(N2CCN(CCO)CC2)n1
Mode: inhibitor
The inhibition was < 50% (CLK3 (Homo sapiens, UniProt P49761); 10 µM).
PRKCH (Homo sapiens, UniProt P24723); 10 µM — inhibition: < 50%.
TNK2 (Homo sapiens, UniProt Q07912); 10 µM — inhibition: 100%.
It gave < 50% for inhibition (CDK9 (Homo sapiens, UniProt P50750); 1 µM).
For MAP3K9 (Homo sapiens, UniProt P80192); 10 µM: inhibition read < 50%.
RAF1 (Homo sapiens, UniProt P04049); 1 µM — inhibition: < 50%.
It gave < 50% for inhibition (MAPK13 (Homo sapiens, UniProt O15264); 10 µM).
The inhibition was < 50% (NEK6 (Homo sapiens, UniProt Q9HC98); 10 µM).
For TEC (Homo sapiens, UniProt P42680); 10 µM: inhibition read 91%.
It gave 87% for inhibition (MAP3K3 (Homo sapiens, UniProt Q99759); 10 µM).
For DDR1 (Homo sapiens, UniProt Q08345); 1 µM: inhibition read 100%.
FLT4 (Homo sapiens, UniProt P35916); 10 µM — inhibition: < 50%.
For NEK2 (Homo sapiens, UniProt P51955); 10 µM: inhibition read 70%.

Set 2
Compound: CC[n+]1c(/C=C/N(C)c2ccccc2)n(-c2ccccc2)c2ccc(-c3nc4ccccc4s3)cc21
Effect on: enzyme activity
Mode: inhibitor
Concentration: 0.5 µM
Relative to: control
For PRKCQ (Homo sapiens, UniProt Q04759): remaining activity read 94.6%.
MUSK (Homo sapiens, UniProt O15146) — remaining activity: 94.7%.
The remaining activity was 99.8% (PRKCZ (Homo sapiens, UniProt Q05513)).
For FLT1 (Homo sapiens, UniProt P17948): remaining activity read 94.1%.
It gave 109% for remaining activity (RPS6KA3 (Homo sapiens, UniProt P51812)).
It gave 123% for remaining activity (SGK2 (Homo sapiens, UniProt Q9HBY8)).
It gave 104% for remaining activity (JAK1 (Homo sapiens, UniProt P23458)).
The remaining activity was 105% (SRPK1 (Homo sapiens, UniProt Q96SB4)).
It gave 115% for remaining activity (CAMKK1 (Homo sapiens, UniProt Q8N5S9)).
For CSNK1D (Homo sapiens, UniProt P48730): remaining activity read 104%.
It gave 92.9% for remaining activity (Cyclin-dependent kinase 2, with cyclin E (CDK2, Homo sapiens, UniProt P24941)).
It gave 93% for remaining activity (IGF1R (Homo sapiens, UniProt P08069)).

Set 3
Structure (SMILES): Nc1cnc(N2CCc3cc(S(=O)(=O)Nc4c(F)cc(Cl)cc4F)cc(N4CCCC4=O)c32)nc1
Concentration: 1 µM
It gave 100% for remaining binding (STK17B (Homo sapiens, UniProt O94768); cell-free assay, competition with immobilised ligand).
Tyrosine-protein kinase JAK1, JH2 (JAK1, Homo sapiens, UniProt P23458); cell-free assay, competition with immobilised ligand — remaining binding: 93%.
The remaining binding was 100% (Ribosomal protein S6 kinase alpha-5, C-terminal kinase domain (RPS6KA5, Homo sapiens, UniProt O75582); cell-free assay, competition with immobilised ligand).
It gave 100% for remaining binding (EGFR (Homo sapiens, UniProt P00533, G719C); cell-free assay, competition with immobilised ligand).
PRPF4B (Homo sapiens, UniProt Q13523); cell-free assay, competition with immobilised ligand — remaining binding: 76%.
The remaining binding was 100% (BRAF (Homo sapiens, UniProt P15056, V600E); cell-free assay, competition with immobilised ligand).
It gave 97% for remaining binding (CDK4 (Homo sapiens, UniProt P11802); cell-free assay, competition with immobilised ligand).
For STK35 (Homo sapiens, UniProt Q8TDR2); cell-free assay, competition with immobilised ligand: remaining binding read 100%.
PAK5 (Homo sapiens, UniProt Q9P286); cell-free assay, competition with immobilised ligand — remaining binding: 90%.
STK38L (Homo sapiens, UniProt Q9Y2H1); binding, competition with immobilised ligand — remaining binding: 42%.
It gave 100% for remaining binding (ANKK1 (Homo sapiens, UniProt Q8NFD2); cell-free assay, competition with immobilised ligand).
PKMYT1 (Homo sapiens, UniProt Q99640); cell-free assay, competition with immobilised ligand — remaining binding: 99%.
It gave 100% for remaining binding (LIM domain kinase 1 (LIMK1, Homo sapiens, UniProt P53667); cell-free assay, competition with immobilised ligand).
Tyrosine-protein kinase ABL1, phosphorylated (ABL1, Homo sapiens, UniProt P00519, F317I); binding — remaining binding: 100%.
The remaining binding was 100% (MERTK (Homo sapiens, UniProt Q12866); cell-free assay, competition with immobilised ligand).
It gave 100% for remaining binding (FES (Homo sapiens, UniProt P07332); cell-free assay, competition with immobilised ligand).
For EPHB3 (Homo sapiens, UniProt P54753); cell-free assay, competition with immobilised ligand: remaining binding read 100%.
The remaining binding was 100% (PIK3CA (Homo sapiens, UniProt P42336, E545A); cell-free assay, competition with immobilised ligand).
The remaining binding was 90% (IGF1R (Homo sapiens, UniProt P08069); cell-free assay, competition with immobilised ligand).

Set 4
Target: DNA polymerase theta, ATPase domain (POLQ, Homo sapiens, UniProt O75417)
UniProt O75417, sequence (whole entry, unmodified, looked up): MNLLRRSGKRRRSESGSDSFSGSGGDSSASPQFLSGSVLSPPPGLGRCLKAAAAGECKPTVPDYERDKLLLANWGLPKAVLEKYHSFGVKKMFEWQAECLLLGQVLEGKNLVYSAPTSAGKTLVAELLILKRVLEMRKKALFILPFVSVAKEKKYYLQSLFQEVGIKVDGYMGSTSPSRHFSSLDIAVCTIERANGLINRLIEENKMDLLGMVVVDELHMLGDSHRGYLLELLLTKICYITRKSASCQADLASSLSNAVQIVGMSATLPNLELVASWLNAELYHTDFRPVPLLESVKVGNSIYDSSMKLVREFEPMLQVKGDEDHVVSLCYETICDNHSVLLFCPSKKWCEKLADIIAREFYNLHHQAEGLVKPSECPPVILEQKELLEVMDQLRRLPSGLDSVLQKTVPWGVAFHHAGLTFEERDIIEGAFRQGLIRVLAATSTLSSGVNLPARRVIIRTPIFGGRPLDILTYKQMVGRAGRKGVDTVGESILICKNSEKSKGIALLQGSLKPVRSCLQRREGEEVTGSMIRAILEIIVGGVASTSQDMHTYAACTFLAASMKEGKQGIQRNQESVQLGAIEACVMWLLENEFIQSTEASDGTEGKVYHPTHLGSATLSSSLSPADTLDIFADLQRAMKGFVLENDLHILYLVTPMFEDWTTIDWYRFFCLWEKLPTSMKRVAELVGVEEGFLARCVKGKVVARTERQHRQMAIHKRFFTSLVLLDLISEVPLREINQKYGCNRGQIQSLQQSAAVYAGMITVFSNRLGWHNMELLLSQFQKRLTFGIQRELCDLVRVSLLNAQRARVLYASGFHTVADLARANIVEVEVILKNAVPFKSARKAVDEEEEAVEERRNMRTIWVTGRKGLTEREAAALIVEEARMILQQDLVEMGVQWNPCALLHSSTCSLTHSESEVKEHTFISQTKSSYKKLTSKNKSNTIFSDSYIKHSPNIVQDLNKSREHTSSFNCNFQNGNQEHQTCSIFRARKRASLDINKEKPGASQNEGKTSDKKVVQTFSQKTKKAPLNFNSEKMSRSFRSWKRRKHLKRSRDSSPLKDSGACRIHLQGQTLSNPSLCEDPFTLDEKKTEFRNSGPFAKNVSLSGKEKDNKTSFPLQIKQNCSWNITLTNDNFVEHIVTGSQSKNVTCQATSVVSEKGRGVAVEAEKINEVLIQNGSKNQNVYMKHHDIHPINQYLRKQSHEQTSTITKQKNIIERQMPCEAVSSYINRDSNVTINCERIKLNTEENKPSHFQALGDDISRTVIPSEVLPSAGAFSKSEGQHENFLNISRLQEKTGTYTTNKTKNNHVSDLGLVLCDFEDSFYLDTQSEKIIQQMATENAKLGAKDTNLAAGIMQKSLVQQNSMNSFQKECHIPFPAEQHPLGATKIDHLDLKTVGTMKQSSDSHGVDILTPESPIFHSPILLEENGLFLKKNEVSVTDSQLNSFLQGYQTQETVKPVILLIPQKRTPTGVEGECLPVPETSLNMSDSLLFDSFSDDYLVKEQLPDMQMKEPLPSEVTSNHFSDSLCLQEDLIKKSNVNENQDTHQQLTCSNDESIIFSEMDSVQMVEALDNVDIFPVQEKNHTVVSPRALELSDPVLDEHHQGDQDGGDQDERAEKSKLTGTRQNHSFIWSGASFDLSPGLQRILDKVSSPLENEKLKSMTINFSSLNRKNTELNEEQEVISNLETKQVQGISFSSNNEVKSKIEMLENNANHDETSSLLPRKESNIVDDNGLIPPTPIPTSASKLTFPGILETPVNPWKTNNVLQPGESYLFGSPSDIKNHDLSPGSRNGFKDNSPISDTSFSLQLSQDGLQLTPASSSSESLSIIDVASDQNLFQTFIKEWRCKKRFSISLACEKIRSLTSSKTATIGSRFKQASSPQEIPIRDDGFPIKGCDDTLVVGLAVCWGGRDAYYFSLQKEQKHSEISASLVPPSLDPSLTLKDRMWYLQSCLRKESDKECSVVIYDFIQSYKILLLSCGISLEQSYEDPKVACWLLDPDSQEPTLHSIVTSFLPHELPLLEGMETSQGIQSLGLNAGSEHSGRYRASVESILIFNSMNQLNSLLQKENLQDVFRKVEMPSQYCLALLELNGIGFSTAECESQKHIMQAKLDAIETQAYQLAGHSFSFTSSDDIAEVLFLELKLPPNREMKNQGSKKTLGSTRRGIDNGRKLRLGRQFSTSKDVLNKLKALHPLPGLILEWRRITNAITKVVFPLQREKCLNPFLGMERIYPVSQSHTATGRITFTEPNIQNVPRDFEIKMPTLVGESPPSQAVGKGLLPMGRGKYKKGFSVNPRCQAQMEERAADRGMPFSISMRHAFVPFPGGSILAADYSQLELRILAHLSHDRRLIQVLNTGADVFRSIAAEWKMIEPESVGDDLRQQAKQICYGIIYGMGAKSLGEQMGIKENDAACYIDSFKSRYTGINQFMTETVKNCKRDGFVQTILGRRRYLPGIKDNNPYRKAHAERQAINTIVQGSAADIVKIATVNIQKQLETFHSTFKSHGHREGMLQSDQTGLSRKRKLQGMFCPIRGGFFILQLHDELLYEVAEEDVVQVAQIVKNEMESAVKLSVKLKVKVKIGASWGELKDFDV
Effect on: enzyme activity
Mode: inhibitor
Concentration: 77 µM
Relative to: untreated
COc1cc(N)c(Cl)cc1C(=O)NC1CCN(Cc2ccccc2)CC1 has a remaining activity of 102%.
Nc1nc(F)nc2c1ncn2[C@@H]1O[C@H](COP(=O)(O)O)[C@@H](O)[C@@H]1O gave a remaining activity of 97.5%.
The remaining activity of NC(=O)CCCSc1nc(N)nc(-c2c(Cl)cc3c4c(cccc24)COC3)n1 is reported as 82.1%.
For CC(C)c1nn(-c2c(Cl)cccc2Cl)c2nc(Cc3ccc(OCCO)cc3)[nH]c(=O)c12, the remaining activity was 112%.
Cc1cc(C#N)cc(C)c1Oc1nc(Nc2ccc(C#N)cc2)nc(N)c1Br has a remaining activity of 79%.
CC#CCn1c(N2CCC[C@@H](N)C2)nc2c1c(=O)n(Cc1nc(C)c3ccccc3n1)c(=O)n2C gave a remaining activity of 98.2%.
CCCCCCCCCCCCCCCC(=O)O[C@@H]1[C@@H](O)[C@@H](O)[C@@H]([C@H](NC(=O)[C@@H]2C[C@@H](CCC)CN2C)[C@H](C)Cl)O[C@@H]1SC gave a remaining activity of 94.4%.
With CCc1ccccc1OC[C@@H](O)CN[C@H]1CCc2ccccc2C1 the remaining activity was 106%.
The remaining activity of CC(C)C(=O)c1c(C(C)C)nn2ccccc12 is reported as 104%.
For CNC(=C[N+](=O)[O-])NCCSCc1csc(CN(C)C)n1, the remaining activity was 96.1% and 100%.
With C[C@H](Cc1cc2c(c(C(N)=O)c1)N(CCCO)CC2)NCCOc1ccccc1OCC(F)(F)F the remaining activity was 92.4%.

For quick reference, copied from above (set 1):
RAF1 (Homo sapiens, UniProt P04049); 1 µM — inhibition: < 50%.
For DDR1 (Homo sapiens, UniProt Q08345); 1 µM: inhibition read 100%.
The inhibition was < 50% (CLK3 (Homo sapiens, UniProt P49761); 10 µM).
For MAP3K9 (Homo sapiens, UniProt P80192); 10 µM: inhibition read < 50%.
TNK2 (Homo sapiens, UniProt Q07912); 10 µM — inhibition: 100%.
It gave < 50% for inhibition (MAPK13 (Homo sapiens, UniProt O15264); 10 µM).
For NEK2 (Homo sapiens, UniProt P51955); 10 µM: inhibition read 70%.
FLT4 (Homo sapiens, UniProt P35916); 10 µM — inhibition: < 50%.
It gave < 50% for inhibition (CDK9 (Homo sapiens, UniProt P50750); 1 µM).
